# Experimental data gathered from unrelated publications.
# Compare with care: the assays were run in different laboratories. ± marks the error that the study gave.
# Organism: Escherichia coli
SMILES,test,test system,setting,scale,quantity,value
C=C(C)C(=O)NCCCCCCOCc1cn(CCCCCCNC(=O)C(=C)C)n[n+]1C,"growth, turbidity OD600",ΔtolC,24 h,,IC50,> 100 µM
CC[C@H](C)[C@H](NC(=O)[C@H](CC(C)C)NC(=O)[C@H](CC(=O)O)NC(=O)[C@H](CCCNC(=N)N)NC(=O)[C@H](Cc1c[nH]c2ccccc12)NC(=O)[C@@H](N)CC(C)C)C(=O)N[C@@H](CS)C(=O)N[C@@H](CC(C)C)C(=O)N[C@@H](CS)C(=O)N[C@@H](CCCNC(=N)N)C(=O)N[C@@H](CC(N)=O)C(=O)N[C@@H](CCCNC(=N)N)C(=O)N[C@@H](CCCNC(=N)N)C(=O)N[C@@H](CS)C(=O)N[C@@H](CC(N)=O)C(=O)N[C@@H](CCCNC(=N)N)C(=O)NCC(=O)N[C@@H](CCC(N)=O)C(=O)N[C@@H](CC(C)C)C(=O)N[C@@H](Cc1ccccc1)C(=O)N1CCC[C@H]1C(=O)NCC(=O)N[C@@H](Cc1c[nH]c2ccccc12)C(=O)N[C@@H](CS)C(=O)N1CCC[C@H]1C(=O)NCC(=O)N[C@@H](Cc1c[nH]c2ccccc12)C(=O)N[C@@H](Cc1c[nH]c2ccccc12)C(=O)N[C@@H](CC(C)C)C(=O)N[C@@H](CCCNC(=N)N)C(=O)N[C@@H](CS)C(=O)N[C@@H](CS)C(=O)N[C@@H](CCCNC(=N)N)C(=O)N[C@@H](CCCNC(=N)N)C(N)=O,colony count,,"30 µg/mL, 2 h, 37 °C, pretreated pepsin gastric fluid, added: pepsin 1 mg/mL",,bactericidal rate,~95%
C=C(C)C(=O)NCCCCCCCCCCOCc1cn(CCCCCCCCCCNC(=O)C(=C)C)n[n+]1C,"growth, turbidity OD600",ΔtolC,24 h,,IC50,7.2 ± 0.5 µM
CC1(C)C(NC(=O)C(=NOC2(C(=O)O)CC2)c2csc(N)n2)C(=O)N1OS(=O)(=O)O (stereo not shown),,"ATCC 2469 NDM-1 producing, ICR mice systemic infection","intravenous, 20 mg/kg",,survival rate,80%
C=CC(=O)NCCCCCCCCOCc1cn(CCCCCCCCNC(=O)C=C)n[n+]1C,"growth, turbidity OD600",ΔtolC,24 h,,IC50,> 100 µM
CC(C)C[C@H](NC(=O)[C@H](CCN)NC(=O)[C@H](CCN)NC(=O)[C@@H](Cc1ccccc1)NC(=O)[C@H](CC(C)C)NC(=O)[C@H](CCN)NC(=O)[C@H](CCN)NC(=O)[C@@H](CCN)NC(=O)CCS)C(N)=O,,ATCC 10546,"24 h, 37 °C",,MBC,32 µM
CC[C@H](C)[C@H](NC(=O)[C@H](Cc1c[nH]c2ccccc12)NC(=O)c1ccccc1)C(=O)N[C@H](C(=O)N[C@@H](Cc1ccc(O)cc1)C(=O)N[C@@H](CCCCN)C(=O)N[C@@H](Cc1c[nH]c2ccccc12)C(=O)N1CCC[C@@H]1C(=O)N[C@@H](CCCNC(=N)N)C(=O)N[C@@H](CCCCN)C(=O)N[C@@H](CCCCN)C(=O)N[C@H](C(=O)N[C@@H](CCCNC(=N)N)C(=O)N[C@@H](Cc1ccc(O)cc1)C(=O)N[C@@H](Cc1c[nH]c2ccccc12)C(=O)N[C@H](C(=O)NCC(=O)N1CCC[C@H]1C(N)=O)[C@@H](C)O)C(C)C)C(C)C,growth,DH5α,"16 h, 37 °C",,IC50,95 µM
CN(C)S(=O)(=O)c1ccc(S(=O)(=O)N2CCC(n3c(=O)[nH]c4ccccc43)CC2)cc1,,Keio wild type,"concentration not given, 24 h",,streptomycin concentration,3.92 µg/mL
CCOC(=O)C1(Cc2ccccc2)Oc2cc(F)ccc2N(Cc2ccccc2)C1=O (stereo not shown),bacterial growth,BL21(DE3),"100 µM, 4 h",,OD600,> 0.9
CCC(=O)OCCSC[C@H](N)C(=O)N[C@H](CCN)C(=O)N[C@@H](CCN)C(=O)N[C@@H](CCN)C(=O)N[C@@H](CC(C)C)C(=O)N[C@H](Cc1ccccc1)C(=O)N[C@@H](CCN)C(=O)N[C@@H](CCN)C(=O)N[C@@H](CC(C)C)C(N)=O,,ATCC 10546,"24 h, 37 °C",,MBC,32 µM
CC[C@H](C)[C@H](NC(=O)[C@H](C)NC(=O)CNC(=O)[C@H](C)NC(=O)[C@H](CCCCN)NC(=O)[C@H](CO)NC(=O)[C@H](C)NC(=O)[C@H](CCSC)NC(=O)CN)C(=O)N[C@@H](C)C(=O)NCC(=O)N[C@@H](CCCCN)C(=O)N[C@H](C(=O)N[C@@H](C)C(=O)N[C@@H](CCCCN)C(=O)N[C@H](C(=O)N[C@@H](C)C(=O)N[C@@H](CC(C)C)C(=O)N[C@@H](CCCCN)C(=O)N[C@@H](C)C(=O)N[C@@H](CC(C)C)C(N)=O)C(C)C)[C@@H](C)CC,,0370 ampicillin resistant,"Loewe additivity, added: ampicillin",,combination index,0.96
C=CC(=O)NCCCCOCc1cn(CCCCNC(=O)C=C)n[n+]1C,"growth, turbidity OD600",ΔtolC,24 h,,IC50,> 100 µM
CC[C@H](C)[C@@H]1NC(=O)CNC(=O)[C@H](CCCNC(=N)N)NC(=O)[C@H](Cc2ccc(O)cc2)NC(=O)[C@@H]2CSSC[C@H](NC1=O)C(=O)N[C@@H](Cc1ccc(O)cc1)C(=O)N[C@@H](CCCNC(=N)N)C(=O)N[C@@H](CCCNC(=N)N)C(=O)N[C@H](C(=O)N[C@@H](CCCNC(=N)N)C(=O)N[C@@H](Cc1c[nH]c3ccccc13)C(=O)N[C@@H](CCCCN)C(=O)O)CSSC[C@H](NC(=O)[C@H](Cc1c[nH]c3ccccc13)NC(=O)[C@H](Cc1c[nH]c3ccccc13)NC(=O)[C@@H](N)CCCCN)C(=O)N[C@@H](Cc1ccccc1)C(=O)N[C@@H](CCCNC(=N)N)C(=O)N[C@@H](C(C)C)C(=O)N2,bacterial growth,DH5α,50% growth inhibition,,IC50,> 100 µM
CC[C@H](C)[C@H](NC(=O)[C@H](CCCCN)NC(=O)[C@H](CC(=O)O)NC(=O)[C@H](CC(C)C)NC(=O)[C@@H](NC(=O)[C@H](CC(N)=O)NC(=O)[C@H](CC(C)C)NC(=O)[C@@H](NC(=O)[C@H](Cc1ccccc1)NC(=O)[C@H](CCCCN)NC(=O)[C@H](CCCCN)NC(=O)CNC(=O)[C@H](C)NC(=O)[C@H](CC(N)=O)NC(=O)[C@H](CCCCN)NC(=O)[C@H](Cc1ccccc1)NC(=O)[C@H](CC(N)=O)NC(=O)[C@H](CCC(=O)O)NC(=O)[C@H](Cc1c[nH]c2ccccc12)NC(=O)[C@H](CC(C)C)NC(=O)[C@@H](N)CO)[C@@H](C)CC)[C@@H](C)CC)C(=O)N[C@@H](CCCNC(=N)N)C(=O)N[C@H]1CSSC[C@@H](C(=O)N[C@@H](CCCNC(=N)N)C(=O)N[C@H](C(=O)O)[C@@H](C)O)NC(=O)CNC(=O)CNC(=O)[C@H](C)NC(=O)[C@H](C(C)C)NC(=O)[C@H](CCCNC(=N)N)NC1=O,colony counts,ATCC 8739,1 x MIC,,time to eradication,30 min
C[C@@H](N)[C@H](O)CCCCCCCC(=O)CCCCCCCCCCCCCC[C@@H](O[C@@H]1O[C@H](CO)[C@@H](O)[C@H](O)[C@H]1O)[C@@H](N)CO,"microbial growth, resazurin",ATCC10536,50 µM,,inhibition,96%
COc1ccc(CC2[NH2+]CCc3cc(OC)c(OC)cc32)cc1OC.[Cl][Fe-]([Cl])([Cl])[Cl] (stereo not shown),,,"24 h, 37 °C",,MBC,> 1600 µM
C=CS(=O)(=O)NCCCCCCCCCCOCc1cn(CCCCCCCCCCNS(=O)(=O)C=C)nn1,"growth, turbidity OD600",ΔtolC,24 h,,IC50,> 100 µM
C#CCCCC(=O)N[C@H]1CCOC1=O,"LuxR reporter, antagonist",DH5α sensor strain,"20 µM, added: OHHL 200 nM",,inhibition,69%
CO[C@@H](C(N)=O)[C@H](NC(=O)c1ccc(NC(=O)[C@@H](N)Cc2ccccc2)cc1)C(=O)Nc1ccc(C(=O)Nc2ccc(C(=O)Nc3ccc(C(=O)O)c(O)c3OC(C)C)c(O)c2OC(C)C)cc1,,empty cosmid,concentration not given,baseline: albicidin,potency reduction,~10 fold
CC[C@H](C)[C@@H]1NC(=O)[C@H](CCC(N)=O)NC(=O)[C@@H](NC(=O)[C@H](CC(C)C)NC(=O)[C@H](C)NC(=O)[C@H](C)NC(=O)[C@@H]2CCCN2C(=O)[C@H](CC(C)C)NC(=O)[C@@H](NC(=O)[C@H](CCCCN)NC(=O)[C@H](C)NC(=O)[C@H](C)NC(=O)[C@@H](NC(=O)[C@H](CCCCN)NC(=O)[C@H](CC(C)C)NC(=O)[C@@H](NC(=O)[C@@H](NC(=O)CNC(=O)[C@H](CC(C)C)NC(=O)[C@@H](N)Cc2ccccc2)[C@@H](C)O)C(C)C)C(C)C)C(C)C)CSSC[C@@H](C(=O)O)NC(=O)[C@H](CCCCN)NC(=O)[C@H](CCCCN)NC(=O)[C@H](Cc2ccccc2)NC1=O,time-kill,ATCC 8739,2-4 x MIC,,time to eradication,≤ 120 min
CC[C@H](C)CCCCC(=O)N[C@@H](CCN)C(=O)N[C@H](C(=O)N[C@@H](CCN)C(=O)N[C@H]1CCNC(=O)[C@H]([C@@H](C)O)NC(=O)[C@H](CCN)NC(=O)[C@H](CCN)NC(=O)[C@H](CC(C)C)NC(=O)[C@@H](CC(C)C)NC(=O)[C@H](CCN)NC1=O)[C@@H](C)O,daily serial passaging,ATCC 8739,"highest sub-MIC, 31 days",baseline: initial MIC,MIC fold change,2.63
CC[C@H](C)[C@H](N)C(=O)N[C@@H](CC(C)C)C(=O)N[C@@H](CO)C(=O)N[C@@H](C)C(=O)N[C@H](C(=O)N[C@@H](Cc1c[nH]c2ccccc12)C(=O)N[C@@H](CO)C(=O)NCC(=O)N[C@H](C(=O)N[C@@H](CCCCN)C(=O)N[C@@H](CO)C(=O)N[C@@H](CC(C)C)C(=O)N[C@@H](Cc1ccccc1)C(N)=O)[C@@H](C)CC)[C@@H](C)CC,,K-12 MG1655,"concentration not given, 24 h, 37 °C",baseline: no peptide,relative growth rate,0.177

# A few entries again:
SMILES,test,test system,setting,scale,quantity,value
C=C(C)C(=O)NCCCCCCOCc1cn(CCCCCCNC(=O)C(=C)C)n[n+]1C,"growth, turbidity OD600",ΔtolC,24 h,,IC50,> 100 µM
CC[C@H](C)[C@H](NC(=O)[C@H](CC(C)C)NC(=O)[C@H](CC(=O)O)NC(=O)[C@H](CCCNC(=N)N)NC(=O)[C@H](Cc1c[nH]c2ccccc12)NC(=O)[C@@H](N)CC(C)C)C(=O)N[C@@H](CS)C(=O)N[C@@H](CC(C)C)C(=O)N[C@@H](CS)C(=O)N[C@@H](CCCNC(=N)N)C(=O)N[C@@H](CC(N)=O)C(=O)N[C@@H](CCCNC(=N)N)C(=O)N[C@@H](CCCNC(=N)N)C(=O)N[C@@H](CS)C(=O)N[C@@H](CC(N)=O)C(=O)N[C@@H](CCCNC(=N)N)C(=O)NCC(=O)N[C@@H](CCC(N)=O)C(=O)N[C@@H](CC(C)C)C(=O)N[C@@H](Cc1ccccc1)C(=O)N1CCC[C@H]1C(=O)NCC(=O)N[C@@H](Cc1c[nH]c2ccccc12)C(=O)N[C@@H](CS)C(=O)N1CCC[C@H]1C(=O)NCC(=O)N[C@@H](Cc1c[nH]c2ccccc12)C(=O)N[C@@H](Cc1c[nH]c2ccccc12)C(=O)N[C@@H](CC(C)C)C(=O)N[C@@H](CCCNC(=N)N)C(=O)N[C@@H](CS)C(=O)N[C@@H](CS)C(=O)N[C@@H](CCCNC(=N)N)C(=O)N[C@@H](CCCNC(=N)N)C(N)=O,colony count,,"30 µg/mL, 2 h, 37 °C, pretreated pepsin gastric fluid, added: pepsin 1 mg/mL",,bactericidal rate,~95%
